Measurements of several laboratories.
A part holds a random share of what one study measured. Several values in a cell are separate wells, animals, samples, runs or records.
Sequence of UniProt P45984 (whole entry, looked up): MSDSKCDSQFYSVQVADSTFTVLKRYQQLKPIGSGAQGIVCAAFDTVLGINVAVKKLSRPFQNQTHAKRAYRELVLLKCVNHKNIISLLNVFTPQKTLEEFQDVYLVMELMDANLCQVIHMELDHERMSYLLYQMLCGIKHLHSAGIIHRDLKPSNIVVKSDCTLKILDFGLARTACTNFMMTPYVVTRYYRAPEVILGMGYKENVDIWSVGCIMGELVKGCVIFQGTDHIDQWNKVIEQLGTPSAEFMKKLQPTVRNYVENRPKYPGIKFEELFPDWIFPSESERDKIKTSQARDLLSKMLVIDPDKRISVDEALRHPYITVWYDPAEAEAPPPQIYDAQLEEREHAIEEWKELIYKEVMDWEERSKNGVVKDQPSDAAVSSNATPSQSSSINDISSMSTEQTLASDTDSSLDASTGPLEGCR
Sequence of UniProt P11802 (whole entry, looked up): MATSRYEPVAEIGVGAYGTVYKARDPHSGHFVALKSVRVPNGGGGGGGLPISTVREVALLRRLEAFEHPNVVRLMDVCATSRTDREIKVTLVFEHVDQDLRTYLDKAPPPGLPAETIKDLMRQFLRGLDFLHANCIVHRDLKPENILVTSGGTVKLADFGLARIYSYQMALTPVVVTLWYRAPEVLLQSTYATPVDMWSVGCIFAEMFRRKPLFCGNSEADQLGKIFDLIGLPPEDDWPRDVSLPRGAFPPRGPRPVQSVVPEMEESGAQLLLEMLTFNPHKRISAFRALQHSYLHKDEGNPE
Sequence of UniProt Q9UIK4 (whole entry, looked up): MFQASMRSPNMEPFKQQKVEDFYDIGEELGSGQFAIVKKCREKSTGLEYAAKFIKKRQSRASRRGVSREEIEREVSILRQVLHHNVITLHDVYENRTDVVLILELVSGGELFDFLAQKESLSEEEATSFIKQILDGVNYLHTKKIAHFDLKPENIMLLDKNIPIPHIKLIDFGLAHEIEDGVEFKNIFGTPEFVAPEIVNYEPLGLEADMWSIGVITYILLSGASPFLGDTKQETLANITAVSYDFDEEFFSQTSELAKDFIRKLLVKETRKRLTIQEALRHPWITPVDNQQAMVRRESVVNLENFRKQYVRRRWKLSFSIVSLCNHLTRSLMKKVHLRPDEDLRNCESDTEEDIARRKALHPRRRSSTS
Sequence of UniProt P05771 (whole entry, looked up): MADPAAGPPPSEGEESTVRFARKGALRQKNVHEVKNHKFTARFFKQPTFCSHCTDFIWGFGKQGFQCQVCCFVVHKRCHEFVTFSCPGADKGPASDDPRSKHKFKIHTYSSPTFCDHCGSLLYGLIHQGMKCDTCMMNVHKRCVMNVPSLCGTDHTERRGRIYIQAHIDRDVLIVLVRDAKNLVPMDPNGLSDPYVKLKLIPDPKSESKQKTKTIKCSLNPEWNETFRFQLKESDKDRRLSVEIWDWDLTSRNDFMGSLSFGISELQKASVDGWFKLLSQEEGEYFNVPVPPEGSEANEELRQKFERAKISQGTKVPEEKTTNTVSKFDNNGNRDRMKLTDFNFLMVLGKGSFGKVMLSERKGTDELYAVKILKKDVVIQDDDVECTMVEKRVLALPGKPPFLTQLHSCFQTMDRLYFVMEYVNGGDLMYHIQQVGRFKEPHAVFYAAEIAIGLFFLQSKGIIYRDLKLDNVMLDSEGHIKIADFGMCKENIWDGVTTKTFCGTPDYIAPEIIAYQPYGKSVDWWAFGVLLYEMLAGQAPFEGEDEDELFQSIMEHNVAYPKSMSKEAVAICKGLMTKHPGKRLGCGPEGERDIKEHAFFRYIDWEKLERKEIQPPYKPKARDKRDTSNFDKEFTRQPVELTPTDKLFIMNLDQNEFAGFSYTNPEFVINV
Sequence of UniProt P35372 (whole entry, looked up): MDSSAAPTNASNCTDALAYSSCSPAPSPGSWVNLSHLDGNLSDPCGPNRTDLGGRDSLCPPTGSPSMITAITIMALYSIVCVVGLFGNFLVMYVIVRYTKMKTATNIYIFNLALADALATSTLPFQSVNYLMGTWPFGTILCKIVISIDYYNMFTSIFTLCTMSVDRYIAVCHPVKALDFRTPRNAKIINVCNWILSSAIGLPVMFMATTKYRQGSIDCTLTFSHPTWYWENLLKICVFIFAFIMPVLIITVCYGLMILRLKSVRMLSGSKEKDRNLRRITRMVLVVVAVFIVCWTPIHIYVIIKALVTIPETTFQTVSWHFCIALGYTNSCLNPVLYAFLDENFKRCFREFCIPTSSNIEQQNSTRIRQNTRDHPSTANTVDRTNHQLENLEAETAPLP
Sequence of UniProt Q01959 (whole entry, looked up): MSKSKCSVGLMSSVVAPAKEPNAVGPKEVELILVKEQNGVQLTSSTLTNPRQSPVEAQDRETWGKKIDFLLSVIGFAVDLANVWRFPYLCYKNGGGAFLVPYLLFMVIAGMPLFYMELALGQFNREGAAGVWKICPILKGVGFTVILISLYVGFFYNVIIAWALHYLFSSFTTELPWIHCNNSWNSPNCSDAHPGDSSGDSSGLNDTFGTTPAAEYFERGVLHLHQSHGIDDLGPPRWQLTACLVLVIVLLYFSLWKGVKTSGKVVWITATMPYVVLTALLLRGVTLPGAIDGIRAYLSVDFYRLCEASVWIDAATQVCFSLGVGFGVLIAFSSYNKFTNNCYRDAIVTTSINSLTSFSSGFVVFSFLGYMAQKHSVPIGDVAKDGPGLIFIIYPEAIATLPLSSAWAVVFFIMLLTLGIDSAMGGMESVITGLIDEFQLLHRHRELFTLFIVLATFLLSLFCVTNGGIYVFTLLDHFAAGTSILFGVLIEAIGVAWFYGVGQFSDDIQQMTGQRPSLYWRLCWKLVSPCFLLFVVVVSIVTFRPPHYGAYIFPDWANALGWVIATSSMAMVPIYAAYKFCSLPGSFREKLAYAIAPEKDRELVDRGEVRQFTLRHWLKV
Sequence of UniProt O95747 (whole entry, looked up): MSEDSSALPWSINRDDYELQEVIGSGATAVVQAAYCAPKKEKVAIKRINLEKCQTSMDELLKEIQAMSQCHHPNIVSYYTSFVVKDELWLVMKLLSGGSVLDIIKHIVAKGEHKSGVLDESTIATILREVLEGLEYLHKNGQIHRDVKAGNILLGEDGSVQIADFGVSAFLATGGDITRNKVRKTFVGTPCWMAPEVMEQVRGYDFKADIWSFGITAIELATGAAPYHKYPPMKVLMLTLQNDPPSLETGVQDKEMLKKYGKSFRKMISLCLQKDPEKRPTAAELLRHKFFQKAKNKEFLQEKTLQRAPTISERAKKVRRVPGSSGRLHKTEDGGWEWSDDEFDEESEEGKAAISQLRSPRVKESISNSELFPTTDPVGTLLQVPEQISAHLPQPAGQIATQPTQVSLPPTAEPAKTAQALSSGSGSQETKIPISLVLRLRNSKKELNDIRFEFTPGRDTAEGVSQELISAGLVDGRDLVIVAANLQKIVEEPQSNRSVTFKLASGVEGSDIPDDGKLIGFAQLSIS
Sequence of UniProt P9WI81 (whole entry, looked up): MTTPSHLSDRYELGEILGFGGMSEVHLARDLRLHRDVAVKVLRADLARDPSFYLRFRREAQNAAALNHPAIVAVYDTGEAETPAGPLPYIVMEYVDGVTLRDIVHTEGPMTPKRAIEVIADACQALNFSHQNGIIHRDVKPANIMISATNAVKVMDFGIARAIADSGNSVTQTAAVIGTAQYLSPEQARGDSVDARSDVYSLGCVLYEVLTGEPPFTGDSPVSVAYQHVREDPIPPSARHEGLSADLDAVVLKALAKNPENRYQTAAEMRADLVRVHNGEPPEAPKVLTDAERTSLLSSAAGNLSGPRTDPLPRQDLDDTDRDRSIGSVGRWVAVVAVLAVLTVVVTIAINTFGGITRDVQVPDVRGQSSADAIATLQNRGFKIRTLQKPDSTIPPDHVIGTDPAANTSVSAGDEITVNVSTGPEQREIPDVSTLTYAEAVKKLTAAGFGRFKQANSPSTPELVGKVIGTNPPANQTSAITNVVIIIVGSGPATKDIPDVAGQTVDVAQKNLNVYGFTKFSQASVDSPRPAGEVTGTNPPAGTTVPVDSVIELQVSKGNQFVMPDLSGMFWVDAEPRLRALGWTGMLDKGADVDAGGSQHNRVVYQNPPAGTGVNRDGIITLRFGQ
Sequence of UniProt Q13976 (whole entry, looked up): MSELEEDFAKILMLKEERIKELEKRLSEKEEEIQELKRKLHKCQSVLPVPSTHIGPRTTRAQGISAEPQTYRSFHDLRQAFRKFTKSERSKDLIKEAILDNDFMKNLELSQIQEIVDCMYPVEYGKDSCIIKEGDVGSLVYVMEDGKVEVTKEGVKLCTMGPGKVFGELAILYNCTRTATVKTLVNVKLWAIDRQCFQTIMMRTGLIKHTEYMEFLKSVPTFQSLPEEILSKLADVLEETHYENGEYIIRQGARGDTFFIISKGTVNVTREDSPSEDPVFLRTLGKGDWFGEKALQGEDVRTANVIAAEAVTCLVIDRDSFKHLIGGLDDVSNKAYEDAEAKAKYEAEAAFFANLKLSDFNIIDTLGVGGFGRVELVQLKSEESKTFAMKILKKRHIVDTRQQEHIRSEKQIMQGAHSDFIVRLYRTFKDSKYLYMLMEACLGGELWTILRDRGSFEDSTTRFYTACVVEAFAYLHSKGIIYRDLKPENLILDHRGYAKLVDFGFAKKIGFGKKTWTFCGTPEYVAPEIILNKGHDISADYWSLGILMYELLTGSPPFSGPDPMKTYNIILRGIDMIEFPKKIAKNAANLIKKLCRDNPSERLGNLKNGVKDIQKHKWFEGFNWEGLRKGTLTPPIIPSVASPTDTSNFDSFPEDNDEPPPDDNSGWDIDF

Sample 1
Compound: CCn1cnc2c(Nc3cccc(Cl)c3)nc(N[C@H]3CCCC[C@H]3N)nc21
Read-out: enzyme activity
Action: inhibitor
Concentration: 0.5 µM
Relative to: control
target	remaining activity [%]
DAPK2 (Homo sapiens, UniProt Q9UIK4)	99
Protein kinase C beta type, isoform beta-I (PRKCB, Homo sapiens, UniProt P05771)	106
Cyclin-dependent kinase 4, with cyclin D1 (CDK4, Homo sapiens, UniProt P11802)	89.9
MAPK9 (Homo sapiens, UniProt P45984)	102
STK39 (Homo sapiens, UniProt Q9UEW8)	106
cGMP-dependent protein kinase 1, isoform beta (PRKG1, Homo sapiens, UniProt Q13976)	91.8
GRK3 (Homo sapiens, UniProt P35626)	89.2
OXSR1 (Homo sapiens, UniProt O95747)	92.3

Sample 2
Compound: [N-]=[N+]=CC(=O)CC[C@H](N)C(=O)O
Species: mouse, EL4 tumour
Route: intravenous
Dose: 1 mg/kg
time	tumour volume
day 7	166 mm3 and 361 mm3 and 215 mm3 and 274 mm3 and 471 mm3 and 540 mm3 and 141 mm3 and 386 mm3
day 15	0 mm3
day 9	374 mm3 and 124 mm3 and 890 mm3 and 114 mm3 and 218 mm3 and 585 mm3 and 320 mm3 and 211 mm3
day 10	316 mm3 and 79 mm3 and 218 mm3 and 122 mm3 and 73.9 mm3 and 569 mm3 and 44.5 mm3

Sample 3
Organism: Sarcocystis neurona
Read-out: parasite growth
Concentration: 10 µM
Time: 96 h
Setting: secondary screen
SMILES	inhibition
NC(=NCc1ccc(Cl)cc1)SCCCc1cnc[nH]1	-22.4%
C=CCN1CC[C@]23c4c5ccc(O)c4O[C@H]2C(=O)CC[C@@]3(O)[C@H]1C5	-7%
CC[C@@H](C(N)=O)N1CCCC1=O	-22.7%
CC(O)(CS(=O)(=O)c1ccc(F)cc1)C(=O)Nc1ccc(C#N)c(C(F)(F)F)c1 (stereo not drawn)	-26.8%
C[C@]12CC[C@H](O)CC1=CC[C@@H]1[C@@H]2CC[C@]2(C)C(=O)CC[C@@H]12	-15.2%
CC(C)CC(N(C)C)C1(c2ccc(Cl)cc2)CCC1 (stereo not drawn)	-38.8%

Further values, each from its own experiment
SMILES	target	read-out	technique	concentration	measurement	value
Nc1cnc(N2CCc3cc(S(=O)(=O)Nc4c(F)cc(Cl)cc4F)cc(N4CCCC4=O)c32)nc1	pknB (Mycobacterium tuberculosis, UniProt P9WI81)	cell-free assay	competition with immobilised ligand	1 µM	remaining binding	96%
CC(=O)N1CCC(c2ccc(C(=O)NC3=NCCN3)cc2C(F)(F)F)CC1	SLC6A3 (Homo sapiens, UniProt Q01959)	ligand displacement		10 µM	inhibition	87.3%
CNCc1ccccc1-c1csc([C@@H](C)Nc2nc(C)nc3cc(OC)c(OC)cc23)c1	OPRM1 (Homo sapiens, UniProt P35372)	cell-free assay		10 µM	inhibition	46.8%

Repeated from above (sample 3):
SMILES	inhibition
NC(=NCc1ccc(Cl)cc1)SCCCc1cnc[nH]1	-22.4%
C[C@]12CC[C@H](O)CC1=CC[C@@H]1[C@@H]2CC[C@]2(C)C(=O)CC[C@@H]12	-15.2%
